Experimental data pooled from the literature.
Every numbered part comes from another study and shows a few of its results, in no order. “And” joins repeats or separate records; there may be more than shown.
Sequence of UniProt Q07912 (whole entry, looked up): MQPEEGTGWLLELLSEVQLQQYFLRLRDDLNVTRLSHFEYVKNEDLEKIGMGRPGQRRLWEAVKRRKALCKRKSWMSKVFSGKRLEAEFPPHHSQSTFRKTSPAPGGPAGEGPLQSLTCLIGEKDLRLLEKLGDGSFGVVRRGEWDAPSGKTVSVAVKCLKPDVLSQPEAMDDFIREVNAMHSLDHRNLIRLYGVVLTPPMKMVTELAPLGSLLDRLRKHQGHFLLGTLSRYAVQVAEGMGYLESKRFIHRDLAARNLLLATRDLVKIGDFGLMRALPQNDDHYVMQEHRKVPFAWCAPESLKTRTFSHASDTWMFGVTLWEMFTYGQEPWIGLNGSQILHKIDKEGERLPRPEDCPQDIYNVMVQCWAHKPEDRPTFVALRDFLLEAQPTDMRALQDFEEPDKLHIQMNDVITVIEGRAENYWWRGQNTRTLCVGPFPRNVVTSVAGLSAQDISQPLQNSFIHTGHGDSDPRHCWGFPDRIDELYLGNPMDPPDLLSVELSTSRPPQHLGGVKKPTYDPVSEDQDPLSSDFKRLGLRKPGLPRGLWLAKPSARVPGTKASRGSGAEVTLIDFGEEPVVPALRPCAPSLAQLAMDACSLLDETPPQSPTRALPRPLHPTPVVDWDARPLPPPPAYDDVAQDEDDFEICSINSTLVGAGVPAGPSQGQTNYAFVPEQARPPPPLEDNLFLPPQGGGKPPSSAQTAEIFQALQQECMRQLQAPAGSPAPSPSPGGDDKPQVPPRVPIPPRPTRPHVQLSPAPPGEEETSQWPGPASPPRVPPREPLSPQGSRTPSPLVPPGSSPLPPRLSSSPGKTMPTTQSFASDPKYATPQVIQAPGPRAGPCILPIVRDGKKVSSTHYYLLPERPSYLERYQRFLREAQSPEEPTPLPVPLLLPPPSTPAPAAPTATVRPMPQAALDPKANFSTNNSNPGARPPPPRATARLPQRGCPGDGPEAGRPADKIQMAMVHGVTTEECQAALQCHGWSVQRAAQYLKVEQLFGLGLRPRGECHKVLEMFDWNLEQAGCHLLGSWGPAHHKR
Sequence of UniProt Q96PF2 (whole entry, looked up): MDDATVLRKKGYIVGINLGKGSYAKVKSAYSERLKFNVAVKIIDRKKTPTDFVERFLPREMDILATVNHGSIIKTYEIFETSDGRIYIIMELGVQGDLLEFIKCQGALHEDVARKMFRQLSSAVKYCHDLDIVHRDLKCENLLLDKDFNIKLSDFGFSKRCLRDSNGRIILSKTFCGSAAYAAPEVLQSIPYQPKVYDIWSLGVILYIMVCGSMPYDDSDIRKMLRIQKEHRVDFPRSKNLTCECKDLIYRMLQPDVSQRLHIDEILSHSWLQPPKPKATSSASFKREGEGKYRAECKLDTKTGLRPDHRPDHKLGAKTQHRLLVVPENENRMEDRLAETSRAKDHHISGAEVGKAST
Sequence of UniProt Q16644 (whole entry, looked up): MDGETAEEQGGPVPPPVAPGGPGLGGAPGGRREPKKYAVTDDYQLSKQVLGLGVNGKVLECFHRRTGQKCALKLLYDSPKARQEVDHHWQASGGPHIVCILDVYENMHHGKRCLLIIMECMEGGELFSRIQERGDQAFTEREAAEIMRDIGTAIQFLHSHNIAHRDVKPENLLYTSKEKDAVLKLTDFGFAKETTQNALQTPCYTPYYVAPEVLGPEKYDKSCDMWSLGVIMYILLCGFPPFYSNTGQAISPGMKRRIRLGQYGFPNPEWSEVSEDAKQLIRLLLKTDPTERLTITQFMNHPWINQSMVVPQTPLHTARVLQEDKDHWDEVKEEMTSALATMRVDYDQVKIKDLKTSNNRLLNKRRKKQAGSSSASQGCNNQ
Sequence of UniProt P52333 (whole entry, looked up): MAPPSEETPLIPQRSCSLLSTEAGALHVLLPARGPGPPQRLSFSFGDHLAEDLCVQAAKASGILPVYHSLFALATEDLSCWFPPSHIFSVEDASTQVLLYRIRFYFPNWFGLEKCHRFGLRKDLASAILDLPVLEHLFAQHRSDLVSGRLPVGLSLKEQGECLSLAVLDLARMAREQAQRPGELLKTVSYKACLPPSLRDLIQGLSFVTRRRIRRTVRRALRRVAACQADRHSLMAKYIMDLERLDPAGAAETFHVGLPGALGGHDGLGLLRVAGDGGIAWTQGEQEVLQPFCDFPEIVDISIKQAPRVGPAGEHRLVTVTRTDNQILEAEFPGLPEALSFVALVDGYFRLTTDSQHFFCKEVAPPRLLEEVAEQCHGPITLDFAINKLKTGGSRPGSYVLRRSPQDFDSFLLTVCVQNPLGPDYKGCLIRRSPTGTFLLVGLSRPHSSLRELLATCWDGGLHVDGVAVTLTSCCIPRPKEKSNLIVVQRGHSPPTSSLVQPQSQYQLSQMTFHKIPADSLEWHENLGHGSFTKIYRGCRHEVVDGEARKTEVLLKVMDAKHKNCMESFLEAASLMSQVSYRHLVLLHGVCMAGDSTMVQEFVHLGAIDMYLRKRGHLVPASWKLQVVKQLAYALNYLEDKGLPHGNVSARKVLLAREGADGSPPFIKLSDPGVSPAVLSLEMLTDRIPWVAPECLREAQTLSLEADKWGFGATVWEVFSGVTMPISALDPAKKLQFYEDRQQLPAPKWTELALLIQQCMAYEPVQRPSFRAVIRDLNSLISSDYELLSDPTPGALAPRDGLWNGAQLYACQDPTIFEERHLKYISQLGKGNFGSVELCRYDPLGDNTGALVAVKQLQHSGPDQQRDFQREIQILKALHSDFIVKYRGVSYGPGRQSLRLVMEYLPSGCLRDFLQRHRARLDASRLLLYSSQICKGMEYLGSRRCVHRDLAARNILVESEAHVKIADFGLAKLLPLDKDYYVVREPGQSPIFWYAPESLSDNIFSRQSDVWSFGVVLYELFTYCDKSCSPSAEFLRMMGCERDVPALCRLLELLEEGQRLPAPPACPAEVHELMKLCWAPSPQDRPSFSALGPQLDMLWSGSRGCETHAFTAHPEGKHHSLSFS
Sequence of UniProt O75676 (whole entry, looked up): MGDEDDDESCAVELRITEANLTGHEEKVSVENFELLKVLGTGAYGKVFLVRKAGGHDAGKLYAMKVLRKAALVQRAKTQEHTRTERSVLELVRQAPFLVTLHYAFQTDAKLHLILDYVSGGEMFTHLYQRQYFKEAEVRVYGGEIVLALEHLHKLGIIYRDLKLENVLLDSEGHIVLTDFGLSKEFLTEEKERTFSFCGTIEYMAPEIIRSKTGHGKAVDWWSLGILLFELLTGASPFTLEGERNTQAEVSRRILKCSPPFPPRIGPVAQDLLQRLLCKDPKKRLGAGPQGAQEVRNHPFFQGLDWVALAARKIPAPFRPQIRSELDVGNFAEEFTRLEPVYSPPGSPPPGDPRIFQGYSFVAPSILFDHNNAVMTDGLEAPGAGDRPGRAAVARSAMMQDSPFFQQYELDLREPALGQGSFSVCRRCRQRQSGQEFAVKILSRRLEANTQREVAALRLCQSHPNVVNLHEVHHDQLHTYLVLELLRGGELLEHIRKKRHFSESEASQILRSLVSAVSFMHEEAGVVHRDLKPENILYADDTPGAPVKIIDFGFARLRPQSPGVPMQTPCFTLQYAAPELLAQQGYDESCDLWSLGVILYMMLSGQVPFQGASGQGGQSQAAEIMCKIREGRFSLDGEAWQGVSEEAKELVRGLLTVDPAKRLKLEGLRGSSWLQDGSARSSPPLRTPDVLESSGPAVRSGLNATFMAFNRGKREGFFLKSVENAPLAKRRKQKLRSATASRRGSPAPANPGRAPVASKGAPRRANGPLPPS
Sequence of UniProt Q00534 (whole entry, looked up): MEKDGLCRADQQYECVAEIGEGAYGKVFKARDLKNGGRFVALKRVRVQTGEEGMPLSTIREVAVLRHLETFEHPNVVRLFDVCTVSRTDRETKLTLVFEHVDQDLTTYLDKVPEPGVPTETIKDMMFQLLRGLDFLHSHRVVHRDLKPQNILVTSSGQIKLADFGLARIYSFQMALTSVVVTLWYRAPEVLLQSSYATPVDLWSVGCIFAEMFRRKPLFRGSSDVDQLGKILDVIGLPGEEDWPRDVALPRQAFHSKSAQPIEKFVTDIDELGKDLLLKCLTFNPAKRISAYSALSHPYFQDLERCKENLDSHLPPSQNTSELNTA
Sequence of UniProt P54760 (whole entry, looked up): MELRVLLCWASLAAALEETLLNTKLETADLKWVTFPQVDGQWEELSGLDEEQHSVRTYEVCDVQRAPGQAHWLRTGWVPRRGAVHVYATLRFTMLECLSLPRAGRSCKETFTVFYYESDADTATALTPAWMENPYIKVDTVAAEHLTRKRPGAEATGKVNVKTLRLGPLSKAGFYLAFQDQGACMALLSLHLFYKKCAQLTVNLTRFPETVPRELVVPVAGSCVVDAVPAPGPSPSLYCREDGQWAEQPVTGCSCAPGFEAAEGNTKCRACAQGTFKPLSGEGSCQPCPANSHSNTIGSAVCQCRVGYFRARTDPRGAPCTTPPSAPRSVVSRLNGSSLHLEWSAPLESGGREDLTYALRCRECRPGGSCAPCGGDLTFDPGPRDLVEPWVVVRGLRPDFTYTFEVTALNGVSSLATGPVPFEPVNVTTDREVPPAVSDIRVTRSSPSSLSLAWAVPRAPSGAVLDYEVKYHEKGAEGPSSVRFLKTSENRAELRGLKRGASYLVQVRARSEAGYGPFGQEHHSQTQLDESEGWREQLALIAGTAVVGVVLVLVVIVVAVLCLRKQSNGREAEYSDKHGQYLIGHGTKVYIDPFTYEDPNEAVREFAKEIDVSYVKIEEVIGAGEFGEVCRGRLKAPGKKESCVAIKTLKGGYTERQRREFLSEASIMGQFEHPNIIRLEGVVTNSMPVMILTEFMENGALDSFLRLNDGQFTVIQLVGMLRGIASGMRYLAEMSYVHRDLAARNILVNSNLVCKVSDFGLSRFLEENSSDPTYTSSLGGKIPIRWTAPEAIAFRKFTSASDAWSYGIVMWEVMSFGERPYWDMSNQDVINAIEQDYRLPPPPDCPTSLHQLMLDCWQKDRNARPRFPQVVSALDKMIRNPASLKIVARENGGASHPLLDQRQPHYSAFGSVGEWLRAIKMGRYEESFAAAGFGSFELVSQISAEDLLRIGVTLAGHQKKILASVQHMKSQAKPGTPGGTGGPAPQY

Sample 1 — host: human; medium: microsomes or S9; tested at: 2 µM; time: 0.5 h
| SMILES | remaining compound |
| --- | --- |
| CN1CCC2(CCCN2Cc2ccc(Cl)cc2Br)CC1 | 93.3% |
| Cc1ccc(S(=O)(=O)NNc2ccc(S(=O)(=O)N(C(C)C)C(C)C)cn2)c(Cl)c1 | 0% |
| Cc1ccc(NC(=O)N2Cc3c(sc4c3CCCC4)-n3cccc3C2c2ccc(N(C)C)cc2)c(C)c1 (stereo not drawn) | 18.9% |
| Cc1nn(CC(=O)O)c2nccc(-c3cnn(C)c3)c12 | 89.5% |
| Cc1ccc(Nc2nc(Cl)nc(NC(C)C)n2)cc1 | 1.18% |
| Cc1cccc(OCC(O)Cn2nc(C)c3c(C)onc3c2=O)c1 (stereo not drawn) | 47% |
| Cc1c(C(=O)O)[nH]c(CCNC(=O)OC(C)(C)C)c1S(N)(=O)=O | 78.3% |
| Cc1ccc(NC(=O)CN(C)S(=O)(=O)c2ccc(Br)s2)c(Cl)c1 | < 1% |

Sample 2 — SMILES: O=C1NC(=O)c2c1c1c3ccccc3[nH]c1n1cncc21; observed: enzyme activity; action: inhibitor; tested at: 0.5 µM; reference: control
| target | remaining activity [%] |
| --- | --- |
| Serine/threonine-protein kinase 17A (STK17A, Homo sapiens, UniProt Q9UEE5) | 36.6 |
| Ribosomal protein S6 kinase alpha-5 (RPS6KA5, Homo sapiens, UniProt O75582) | 87.6 |
| Tyrosine-protein kinase Srms (SRMS, Homo sapiens, UniProt Q9H3Y6) | 100 |
| Dual specificity tyrosine-phosphorylation-regulated kinase 3 (DYRK3, Homo sapiens, UniProt O43781) | 85.8 |
| Phosphorylase b kinase gamma catalytic chain, skeletal muscle/heart isoform (PHKG1, Homo sapiens, UniProt Q16816) | 70.8 |
| Testis-specific serine/threonine-protein kinase 2 (TSSK2, Homo sapiens, UniProt Q96PF2) | 99.1 |
| MAP kinase-activated protein kinase 3 (MAPKAPK3, Homo sapiens, UniProt Q16644) | 88.7 |
| Serine/threonine-protein kinase 16 (STK16, Homo sapiens, UniProt O75716) | 70.9 |
| Mitogen-activated protein kinase kinase kinase kinase 4 (MAP4K4, Homo sapiens, UniProt O95819) | 21.2 |
| Ribosomal protein S6 kinase alpha-6 (RPS6KA6, Homo sapiens, UniProt Q9UK32) | 33.4 |
| Ephrin type-A receptor 4 (EPHA4, Homo sapiens, UniProt P54764) | 98.6 |
| 3-phosphoinositide-dependent protein kinase 1 (PDPK1, Homo sapiens, UniProt O15530) | 89 |
| Serine/threonine-protein kinase WNK3 (WNK3, Homo sapiens, UniProt Q9BYP7) | 79.1 |
| Tyrosine-protein kinase receptor UFO (AXL, Homo sapiens, UniProt P30530) | 91.7 |
| Ephrin type-B receptor 1 (EPHB1, Homo sapiens, UniProt P54762) | 94 |
| Tyrosine-protein kinase Blk (BLK, Homo sapiens, UniProt P51451) | 73.9 |
| Homeodomain-interacting protein kinase 4 (HIPK4, Homo sapiens, UniProt Q8NE63) | 98.5 |
| Calcium/calmodulin-dependent protein kinase type II subunit beta (CAMK2B, Homo sapiens, UniProt Q13554) | 58.2 |
| Cyclin-dependent kinase 4, with cyclin D3 (CDK4, Homo sapiens, UniProt P11802) | 87.1 |
| Cyclin-dependent kinase 6, with cyclin D3 (CDK6, Homo sapiens, UniProt Q00534) | 74.3 |
| Tyrosine-protein kinase ABL1 (ABL1, Homo sapiens, UniProt P00519) | 85.6 |
| Ephrin type-B receptor 4 (EPHB4, Homo sapiens, UniProt P54760) | 105 |
| Homeodomain-interacting protein kinase 2 (HIPK2, Homo sapiens, UniProt Q9H2X6) | 94.4 |

Sample 3 — cell line: THP-1
SMILES: C[C@@H]1[C@H](O)[C@@H](C)/C=C/C=C/C=C/C=C/C=C/C=C/C=C/[C@H](O[C@@H]2O[C@H](C)[C@@H](O)[C@H](N)[C@@H]2O)C[C@@H]2O[C@](O)(C[C@@H](O)C[C@@H](O)[C@H](O)CC[C@@H](O)C[C@@H](O)CC(=O)O[C@H]1C)C[C@H](O)[C@H]2C(=O)O
| assay | conditions | inhibition |
| --- | --- | --- |
| host cell growth | 2 µM | 54% and 57% and 49% and 56% |
| host cell growth | 0.004 µM | -1.89% and -0.1% and -1.01% and -3.27% and 1.8% and -3.75% |
| host cell growth | 4 µM | 93% and 99% |
|  | 20 µM, cytotoxicity | 100% |

Sample 4 — observed: cell-free assay; method: competition with immobilised ligand; tested at: 0.1 µM
SMILES: CS(=O)(=O)N1CCCC(NC(=O)[C@H](CCC2CCCCC2)NC(=O)c2ccc(CNC(=O)c3cnc4ccccn34)cc2)C1 (stereo partly drawn)
| target | remaining binding [%] |
| --- | --- |
| Mitogen-activated protein kinase kinase kinase 15 (MAP3K15, Homo sapiens, UniProt Q6ZN16) | 100 |
| Cyclin-dependent kinase 3 (CDK3, Homo sapiens, UniProt Q00526) | 100 |
| Fibroblast growth factor receptor 3 (FGFR3, Homo sapiens, UniProt P22607, G697C) | 86 |
| Cyclin-dependent kinase 15 (CDK15, Homo sapiens, UniProt Q96Q40) | 95 |
| Death-associated protein kinase 1 (DAPK1, Homo sapiens, UniProt P53355) | 88 |
| Phosphatidylinositol 4,5-bisphosphate 3-kinase catalytic subunit gamma isoform (PIK3CG, Homo sapiens, UniProt P48736) | 96 |
| Cyclin-dependent kinase 14 (CDK14, Homo sapiens, UniProt O94921) | 100 |
| Tyrosine-protein kinase JAK3, JH1 (JAK3, Homo sapiens, UniProt P52333) | 69 |
| Tyrosine-protein kinase ITK/TSK (ITK, Homo sapiens, UniProt Q08881) | 90 |
| Epidermal growth factor receptor (EGFR, Homo sapiens, UniProt P00533) | 76 |
| Dual specificity protein kinase CLK3 (CLK3, Homo sapiens, UniProt P49761) | 100 |
| Serine/threonine-protein kinase pim-1 (PIM1, Homo sapiens, UniProt P11309) | 89 |
| Interleukin-1 receptor-associated kinase 1 (IRAK1, Homo sapiens, UniProt P51617) | 100 |
| ALK tyrosine kinase receptor (ALK, Homo sapiens, UniProt Q9UM73, L1196M) | 94 |
| Ribosomal protein S6 kinase alpha-4, C-terminal kinase domain (RPS6KA4, Homo sapiens, UniProt O75676) | 100 |
| Calcium/calmodulin-dependent protein kinase type IV (CAMK4, Homo sapiens, UniProt Q16566) | 94 |
| Serine/threonine-protein kinase haspin (HASPIN, Homo sapiens, UniProt Q8TF76) | 74 |
| STE20-like serine/threonine-protein kinase (SLK, Homo sapiens, UniProt Q9H2G2) | 99 |
| Fibroblast growth factor receptor 2 (FGFR2, Homo sapiens, UniProt P21802) | 100 |
| Tyrosine-protein kinase Mer (MERTK, Homo sapiens, UniProt Q12866) | 94 |
| eIF-2-alpha kinase GCN2, C-terminal kinase domain (EIF2AK4, Homo sapiens, UniProt Q9P2K8, S808G) | 100 |
| Activated CDC42 kinase 1 (TNK2, Homo sapiens, UniProt Q07912) | 70 |
